Measurements collected from several papers.
Every numbered part comes from another study and shows a few of its results, in no order. ± gives the spread as reported.

Series 1
Substance: deucravacitinib
Host: human
Setting: multiple dose
Quantity: fatigue incidence
dose = 12 mg twice daily; value = 0%
dose = 12 mg once daily; value = 0%
dose = 2 mg twice daily; value = 11.1%

Other studies, line by line
Substance = chicoric acid; test = UPLC; system = broiler chicken, plasma; setting = oral gavage, 20 mg/kg; quantity = CL/F; value = 680 ± 231 mL/min/kg
Substance = maraviroc; system = black CYP3A5 poor metabolizers, plasma; setting = 300 mg twice daily; quantity = Tmax; value = 3 h
Substance = semaglutide; test = refers to: any adverse event; system = human, safety analysis set; setting = concentration not given, 32 weeks, run-in; quantity = participants with adverse events; value = 79.2%

Repeated from above (other studies, line by line):
Substance = maraviroc; system = black CYP3A5 poor metabolizers, plasma; setting = 300 mg twice daily; quantity = Tmax; value = 3 h
